Measurements of several laboratories.
Lines come from different studies, so protocols differ. Several values in a cell are separate wells, animals, samples, runs or records. ± gives the spread as reported.

For `Cc1ccc2c(c1)C(=O)[C@]1(O)CCN(c3ccc4nc(C)ccc4c3)C1=N2.Cl`, the survival prolongation was 25% (mouse, orthotopic sample A PDX; dose not given, 168 h, treatment from day 7; reference: vehicle).
For `C[C@]12CC[C@H](O)CC1=CC[C@@H]1[C@@H]2CC[C@]2(C)C(n3cnc4ccccc43)=CC[C@@H]12`, “full-length AR protein level” read “decreased” (Western blot; male NRG mouse, CWR22Rv1 xenograft, tumour; dose not given, day 16).
`CC(C)[C@H](NC(=O)[C@H](Cc1ccc(O)cc1)NC(=O)[C@H](Cc1ccc(O)cc1)NC(=O)[C@@H]1CCCN1C(=O)[C@H](CCC(=O)O)NC(=O)[C@H](CCC(=O)O)NC(=O)[C@H](Cc1c[nH]c2ccccc12)NC(=O)[C@@H]1CCCN1C(=O)[C@@H](NC(=O)[C@H](CCC(N)=O)NC(=O)c1ccc2c(c1)C(=O)OC21c2ccc(O)cc2Oc2cc(O)ccc21)C(C)C)C(=O)N[C@H](C(=O)N[C@@H](CCCCN)C(=O)N[C@@H](CCCCN)C(=O)N[C@@H](CO)C(=O)N[C@@H](CO)C(=O)NCC(=O)NCC(N)=O)C(C)C` — result for “share of responses”: 0% (nerve branching; human head and neck surgery, nerves; 500 mg, much improved; reference: white light).
`O=C1Nc2cc3[nH]nc(-c4ccncc4)c3cc2CN1Cc1ccccc1`: “partial response, best response” 0% (RECIST v1.1; human, relapsed or refractory advanced solid tumours; intravenous, 7.2 mg/kg, pooled schedules).
For `OC(CCN1CCCCC1)(c1ccccc1)C1CC2C=CC1C2` (stereo not shown), “EEG Alpha1-power Pz-O1” read 15.9 µV² (resting-state EEG; healthy elderly humans; oral, 2 mg, eyes closed, LS mean).
`CSCCNc1nc(SCCC(F)(F)F)nc2c1ncn2[C@@H]1O[C@H](COP(=O)(O)OP(=O)(O)C(Cl)(Cl)P(=O)(O)O)[C@@H](O)[C@H]1O` — result for “patients with inhibition above threshold”: 5% (platelet aggregation, light transmission aggregometry; human patients, platelet-rich plasma; dose not given, 15 min, inhibition threshold 90%, with: ADP 5 µM).
For `CC1(C)CCC(c2ccc(Cl)cc2)=C(CN2CCN(c3ccc(C(=O)NS(=O)(=O)c4ccc(N[C@H](CCN5CCOCC5)CSc5ccccc5)c(S(=O)(=O)C(F)(F)F)c4)cc3)CC2)C1`, the EC50 was 24 nM (cell kill, PI exclusion flow cytometry; neoplastic T lymphocytes, human, thawed lymph node; 24 h).
Under pSTAT3 level, `Cc1cc(Nc2cc3ncccc3c(N[C@@H]3C[C@H]4CC[C@@H](C3)N4CCC#N)n2)n[nH]1` is recorded as “inhibited” (Balb/c mice, oxazolone colitis, colonic mucosa; oral, 30 mg/kg twice daily; reference: vehicle).
For `COC[C@@H](c1ccc(C(F)(F)F)cc1)N1CCN(C2(C)CCN(C(=O)c3c(C)ncnc3C)CC2)C[C@@H]1C`, “change in HIV-1 RNA” read -1.85 log10 copies/mL (HIV-1 infected patients, plasma; 15 mg, week 24, with optimized background regimen; reference: baseline).
`C[C@@H](O)CCOC(=O)C[C@@H](C)O` has a metabolite level of 6.28 ± 0.31 µmol/L (refers to: Orn; human, plasma; 60 min, log2-transformed values).
`CS(=O)(=O)C1(CNCc2ccc(Cl)c3cccnc23)CC1` — result for “mechanical withdrawal threshold”: “no effect” (von Frey test; mouse, spared nerve injury model; intrathecal, dose not given, 30 min, ipsilateral paw, 20% ethanol vehicle; reference: vehicle).
`COc1ncnn2ccc(-c3cnc4nc(C)n(Cc5nnc([C@@H](C)F)o5)c4c3)c12` — result for “best overall response PR”: 0% (relapsed or refractory AML, MDS; dose not given, splicing factor mutation-positive).
Under “pathway activation z-score”, `Cn1cc(Nc2nccc(-c3ccc4c(c3)CN(C3COC3)CC[C@H]4NC(=O)c3cn(C(C)(C)C)nn3)n2)cn1` is recorded as -3.21 (refers to: tRNA Charging; splenic B cells, mouse; in vivo, 30 mg/kg, IgD-activated B cells; reference: vehicle, positive = activation).
With `C[C@H]1O[C@@H](O[C@H]2CC[C@@]3(C)[C@@H](CC[C@]4(C)[C@@H]3C=C[C@]35OC[C@@]6(CCC(C)(C)C[C@H]63)[C@@H](O)C[C@]54C)[C@]2(C)CO)[C@H](O)[C@@H](O[C@@H]2O[C@H](CO)[C@@H](O)[C@H](O)[C@H]2O)[C@H]1O` the triglyceride level was 0.116 mmol/g protein and 0.249 mmol/g protein and 0.245 mmol/g protein and 0.141 mmol/g protein and 0.24 mmol/g protein and 0.16 mmol/g protein (chronic-plus-binge ethanol mice, liver; oral, 5 mg/kg/day for 7 d, 168 h).
Under “total urinary corticosteroid excretion”, `N#Cc1ccc2c(c1)[C@H]1CCCN(C(=O)c3ccc4[nH]cnc4c3)[C@H]1C2` is recorded as 200% (T2DM patients with overweight or obesity, urine; oral, 160 mg, day 14, 0-24 h, multiple dosing, adjusted geometric mean; reference: baseline day -1, -24-0 h).
`Cc1cc(C)c(CNC(=O)c2cc(Cl)c3c(c2C)O[C@@](C)([C@H]2CC[C@H](N(C)C)CC2)O3)c(=O)[nH]1` — result for “best overall response PD”: 20% (relapsed/refractory NHL patients, total incl. ATLL and CTCL; oral, dose not given).
Under “change from baseline”, `N#Cc1ccc2c(c1)[C@H]1CCCN(C(=O)c3ccc4[nH]cnc4c3)[C@H]1C2` is recorded as 5.7 mg/dL (refers to: FPG; human; 20 mg once daily, day 28, adjusted mean; reference: placebo).
Under “best response not evaluable”, `Cc1cc(C)c(CNC(=O)c2cc(Cl)c3c(c2C)O[C@@](C)([C@H]2CC[C@H](N(C)C)CC2)O3)c(=O)[nH]1` is recorded as 5% (IWG criteria; relapsed/refractory AITL patients; dose not given).
The inhibition of `CNCc1cc(-c2ccccc2F)n(S(=O)(=O)c2cccnc2)c1` is reported as 66.9% (basal gastric acid secretion; pylorus-ligated rat; oral, 2 mg/kg).
For `CCc1c(C)nc(-c2ccc(Cl)s2)nc1Nc1ccc(CC(=O)O)cc1`, protein level read “increased” (refers to: UCP1; mice, chronic ethanol plus binge, brown adipose tissue; intraperitoneal, 0.3 mg/kg daily, ethanol diet 4 weeks, dosed last two; reference: vehicle).
Under “log2 fold change”, `c1ccc(-c2n[nH]cc2-c2ccnc3ccccc23)nc1` is recorded as 0.801 (kinase binding, competitor, MIB/MS competition, refers to: TOR1; Candida albicans cell lysate; 100 nM; reference: DMSO).
The percent change of `NC(=O)c1cnc2[nH]ccc2c1N[C@@H]1[C@@H]2CC3C[C@H]1C[C@@](O)(C3)C2` is reported as -1.15% (CD8+ effector T cells, flow cytometry; Japanese humans, peripheral blood; 200 mg single dose; reference: baseline).
Under “log2 fold change”, `N#Cc1ccc2c(-c3ccncc3)c(-c3ccc(F)cc3)nn2c1` is recorded as -0.436 (kinase binding, competitor, MIB/MS competition, refers to: RIO2; Candida albicans cell lysate; 1 µM; reference: DMSO).
`COc1cc(CCc2cc(OC)c(O)c(OC)c2)ccc1O` has a lipid accumulation of 87.2 ± 3.11% (Oil Red O; 3T3-L1, mouse; 5 µM, day 8; reference: vehicle).
Under “blood Triglycerides level”, `COc1ccccc1[C@H](Cn1c(=O)n(C(C)(C)C(=O)O)c(=O)c2c(C)c(-c3ncco3)sc21)OC1CCOCC1` is recorded as 127 ± 54.7 mg/dL (human; 200 mg, post-treatment).
With `COc1cc(O)c(CC=C(C)C)c(O)c1C(=O)/C=C/c1ccc(O)cc1` the blood glucose was 134 mg/dL (glucose tolerance test; male Tac:SW germ-free mice, high-fat diet; in diet, 60 mg/kg/day, 10 weeks, baseline).
With `CN[C@@H]1COc2c(S(=O)(=O)NC(=O)Nc3c4c(cc5c3CCC5)CCC4)cnn2C1` the inhibition was 99% (refers to: IL-1β; human participants, whole blood ex vivo; 300 mg twice daily, multiple doses, 8 h, with: LPS/ATP; reference: baseline).
`COc1cc(-c2ccccc2)ncc1C(=O)Nc1ccc2c(=O)[nH]c(-c3ccc(C(C)(C)O)cc3)nc2c1`: “normalized enrichment score” -1 (RNA-seq GSEA, refers to: HALLMARK_FATTY_ACID_METABOLISM; organoids, small intestinal, Apc Q1405X, mouse; dose not given, 3 days, wild-type organoids; reference: DMSO, direction not given).

A few entries again:
Under “pathway activation z-score”, `Cn1cc(Nc2nccc(-c3ccc4c(c3)CN(C3COC3)CC[C@H]4NC(=O)c3cn(C(C)(C)C)nn3)n2)cn1` is recorded as -3.21 (refers to: tRNA Charging; splenic B cells, mouse; in vivo, 30 mg/kg, IgD-activated B cells; reference: vehicle, positive = activation).
With `C[C@H]1O[C@@H](O[C@H]2CC[C@@]3(C)[C@@H](CC[C@]4(C)[C@@H]3C=C[C@]35OC[C@@]6(CCC(C)(C)C[C@H]63)[C@@H](O)C[C@]54C)[C@]2(C)CO)[C@H](O)[C@@H](O[C@@H]2O[C@H](CO)[C@@H](O)[C@H](O)[C@H]2O)[C@H]1O` the triglyceride level was 0.116 mmol/g protein and 0.249 mmol/g protein and 0.245 mmol/g protein and 0.141 mmol/g protein and 0.24 mmol/g protein and 0.16 mmol/g protein (chronic-plus-binge ethanol mice, liver; oral, 5 mg/kg/day for 7 d, 168 h).
Under “total urinary corticosteroid excretion”, `N#Cc1ccc2c(c1)[C@H]1CCCN(C(=O)c3ccc4[nH]cnc4c3)[C@H]1C2` is recorded as 200% (T2DM patients with overweight or obesity, urine; oral, 160 mg, day 14, 0-24 h, multiple dosing, adjusted geometric mean; reference: baseline day -1, -24-0 h).
`Cc1cc(C)c(CNC(=O)c2cc(Cl)c3c(c2C)O[C@@](C)([C@H]2CC[C@H](N(C)C)CC2)O3)c(=O)[nH]1` — result for “best overall response PD”: 20% (relapsed/refractory NHL patients, total incl. ATLL and CTCL; oral, dose not given).
